Measured values from different studies.
Numbered parts are unrelated; each lists some results of a single study. Several values in a cell are separate wells, animals, samples, runs or records.
UniProt O75116, sequence (whole entry, looked up): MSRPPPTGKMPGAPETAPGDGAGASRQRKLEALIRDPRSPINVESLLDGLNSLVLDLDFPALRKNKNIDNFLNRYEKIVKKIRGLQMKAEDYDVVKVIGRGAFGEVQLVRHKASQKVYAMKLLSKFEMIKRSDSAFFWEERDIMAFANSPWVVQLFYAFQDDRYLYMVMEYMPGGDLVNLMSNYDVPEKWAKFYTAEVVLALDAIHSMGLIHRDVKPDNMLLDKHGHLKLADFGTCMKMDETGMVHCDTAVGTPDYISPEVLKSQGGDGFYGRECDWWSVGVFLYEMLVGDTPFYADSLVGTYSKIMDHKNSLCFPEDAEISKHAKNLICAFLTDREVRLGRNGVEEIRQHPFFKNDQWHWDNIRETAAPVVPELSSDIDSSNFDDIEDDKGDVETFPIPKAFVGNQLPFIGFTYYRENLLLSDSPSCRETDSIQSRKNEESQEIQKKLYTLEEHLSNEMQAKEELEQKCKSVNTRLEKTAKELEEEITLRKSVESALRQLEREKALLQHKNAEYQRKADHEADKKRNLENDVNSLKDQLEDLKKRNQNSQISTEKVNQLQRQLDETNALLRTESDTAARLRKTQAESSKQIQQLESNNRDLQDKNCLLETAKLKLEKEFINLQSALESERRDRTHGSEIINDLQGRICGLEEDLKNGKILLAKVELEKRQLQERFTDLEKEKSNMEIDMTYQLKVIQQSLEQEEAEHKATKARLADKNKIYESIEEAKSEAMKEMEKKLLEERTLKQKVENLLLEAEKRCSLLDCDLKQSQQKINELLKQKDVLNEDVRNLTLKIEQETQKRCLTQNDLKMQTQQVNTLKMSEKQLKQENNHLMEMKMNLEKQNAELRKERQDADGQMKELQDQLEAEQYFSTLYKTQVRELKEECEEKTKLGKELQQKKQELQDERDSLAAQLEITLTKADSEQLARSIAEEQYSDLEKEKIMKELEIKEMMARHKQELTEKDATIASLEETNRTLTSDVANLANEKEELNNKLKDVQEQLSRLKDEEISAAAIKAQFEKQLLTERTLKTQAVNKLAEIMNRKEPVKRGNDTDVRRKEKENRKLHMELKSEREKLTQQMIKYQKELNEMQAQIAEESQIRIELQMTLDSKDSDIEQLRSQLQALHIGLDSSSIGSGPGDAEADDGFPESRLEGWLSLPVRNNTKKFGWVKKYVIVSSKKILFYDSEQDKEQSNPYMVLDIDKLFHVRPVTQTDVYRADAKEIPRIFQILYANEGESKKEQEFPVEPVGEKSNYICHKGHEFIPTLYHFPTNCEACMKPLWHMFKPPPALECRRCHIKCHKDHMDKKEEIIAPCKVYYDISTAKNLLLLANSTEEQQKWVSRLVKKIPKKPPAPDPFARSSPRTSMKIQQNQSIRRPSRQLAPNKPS
UniProt O14936, sequence (whole entry, looked up): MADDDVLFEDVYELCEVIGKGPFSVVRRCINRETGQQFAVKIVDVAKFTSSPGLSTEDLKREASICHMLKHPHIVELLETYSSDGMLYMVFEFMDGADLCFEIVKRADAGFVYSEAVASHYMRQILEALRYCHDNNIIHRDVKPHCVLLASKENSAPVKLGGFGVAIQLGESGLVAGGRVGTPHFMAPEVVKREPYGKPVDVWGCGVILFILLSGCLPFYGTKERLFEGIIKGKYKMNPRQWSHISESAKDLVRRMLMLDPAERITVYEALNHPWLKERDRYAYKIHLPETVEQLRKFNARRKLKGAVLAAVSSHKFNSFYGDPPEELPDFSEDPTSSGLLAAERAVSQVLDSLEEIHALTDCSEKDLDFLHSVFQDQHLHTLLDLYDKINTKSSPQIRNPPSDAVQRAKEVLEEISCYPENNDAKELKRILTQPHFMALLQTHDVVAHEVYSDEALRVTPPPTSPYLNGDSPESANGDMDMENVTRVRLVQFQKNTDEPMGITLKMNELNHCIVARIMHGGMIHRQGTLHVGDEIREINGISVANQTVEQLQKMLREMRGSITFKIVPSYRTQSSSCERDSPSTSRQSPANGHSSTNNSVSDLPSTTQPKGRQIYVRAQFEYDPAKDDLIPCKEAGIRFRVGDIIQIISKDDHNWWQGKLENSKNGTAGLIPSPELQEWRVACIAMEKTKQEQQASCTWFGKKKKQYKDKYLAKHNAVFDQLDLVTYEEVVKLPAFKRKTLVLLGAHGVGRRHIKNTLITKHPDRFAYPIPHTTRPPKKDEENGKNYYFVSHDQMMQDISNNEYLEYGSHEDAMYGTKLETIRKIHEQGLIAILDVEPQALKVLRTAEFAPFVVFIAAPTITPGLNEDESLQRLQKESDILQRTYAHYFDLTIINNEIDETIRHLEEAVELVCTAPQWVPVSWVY

Sample 1
Compound: O=C(Nc1ccc(Cl)cc1)c1ccccc1NCc1ccncc1
Observed: enzyme activity
Action: inhibitor
Concentration: 0.5 µM
Baseline: control
target | remaining activity [%]
MAP3K2 (Homo sapiens, UniProt Q9Y2U5) | 92.8
Cyclin-dependent kinase 2, with cyclin A (CDK2, Homo sapiens, UniProt P24941) | 92.2
HIPK3 (Homo sapiens, UniProt Q9H422) | 98.7
PKN2 (Homo sapiens, UniProt Q16513) | 93.2
CDK7 (Homo sapiens, UniProt P50613) | 95.1
RET (Homo sapiens, UniProt P07949) | 58.9
MAP3K8 (Homo sapiens, UniProt P41279) | 105
PTK2B (Homo sapiens, UniProt Q14289) | 89.3
MAPK10 (Homo sapiens, UniProt P53779) | 89.9
CAMK1G (Homo sapiens, UniProt Q96NX5) | 101
DMPK (Homo sapiens, UniProt Q09013) | 103
BRSK1 (Homo sapiens, UniProt Q8TDC3) | 94
NTRK3 (Homo sapiens, UniProt Q16288) | 97
DYRK4 (Homo sapiens, UniProt Q9NR20) | 104
Aurora kinase A (AURKA, Homo sapiens, UniProt O14965) | 84.4
SLK (Homo sapiens, UniProt Q9H2G2) | 86.6
PRKD1 (Homo sapiens, UniProt Q15139) | 93.2
CSNK2A2 (Homo sapiens, UniProt P19784) | 98.3
ROS1 (Homo sapiens, UniProt P08922) | 100
GRK5 (Homo sapiens, UniProt P34947) | 97.3
CAMK1D (Homo sapiens, UniProt Q8IU85) | 95.3
NEK9 (Homo sapiens, UniProt Q8TD19) | 91.2
ROCK2 (Homo sapiens, UniProt O75116) | 93.8

Sample 2
Structure (SMILES): CC(C)CC(=O)N1CCc2nc(-c3ccc(Br)cc3)nc(N(C)Cc3ccccc3)c2C1
Observed: cell-free assay
Technique: competition with immobilised ligand
Concentration: 0.1 µM
target | remaining binding [%]
Tyrosine-protein kinase ABL1, non-phosphorylated (ABL1, Homo sapiens, UniProt P00519, F317L) | 100
MAPK1 (Homo sapiens, UniProt P28482) | 93
PRKCQ (Homo sapiens, UniProt Q04759) | 100
CSNK1D (Homo sapiens, UniProt P48730) | 83
GRK3 (Homo sapiens, UniProt P35626) | 100
CASK (Homo sapiens, UniProt O14936) | 81
PRKCI (Homo sapiens, UniProt P41743) | 100
ROCK2 (Homo sapiens, UniProt O75116) | 74
STK38L (Homo sapiens, UniProt Q9Y2H1) | 95
DYRK1B (Homo sapiens, UniProt Q9Y463) | 77
BMX (Homo sapiens, UniProt P51813) | 100

Sample 3
SMILES: CC(=O)N1CCN(c2nc(OC[C@@H]3CCCN3C)nc3c2CCN(c2cccc4cccc(Cl)c24)C3)C[C@@H]1CC#N
Observed: binding
Action: competitor
Technique: NanoBRET
Cells: HEK293
KRAS Q61R: GTPase KRas (KRAS, Homo sapiens, UniProt P01116, Q61R)
target | conditions | normalized BRET
KRAS Q61R | 5.08 nM | 98.7% and 103% and 107%
GTPase KRas (KRAS, Homo sapiens, UniProt P01116, Q61H) | 1.24 µM | 51% and 51.1% and 57.6%
GTPase KRas (KRAS, Homo sapiens, UniProt P01116, G12D) | 412 nM | 98% and 91.4% and 101%
GTPase KRas (KRAS, Homo sapiens, UniProt P01116, Q61L) | 15.2 nM | 90.6% and 91.4% and 96.6%
KRAS Q61R | 45.7 nM | 95.5% and 100% and 107%
KRAS Q61R | 412 nM | 97.6% and 105% and 94%

Sample 4
Target: DNA polymerase theta, helicase domain (POLQ, Homo sapiens, UniProt O75417)
UniProt O75417, sequence (whole entry, looked up): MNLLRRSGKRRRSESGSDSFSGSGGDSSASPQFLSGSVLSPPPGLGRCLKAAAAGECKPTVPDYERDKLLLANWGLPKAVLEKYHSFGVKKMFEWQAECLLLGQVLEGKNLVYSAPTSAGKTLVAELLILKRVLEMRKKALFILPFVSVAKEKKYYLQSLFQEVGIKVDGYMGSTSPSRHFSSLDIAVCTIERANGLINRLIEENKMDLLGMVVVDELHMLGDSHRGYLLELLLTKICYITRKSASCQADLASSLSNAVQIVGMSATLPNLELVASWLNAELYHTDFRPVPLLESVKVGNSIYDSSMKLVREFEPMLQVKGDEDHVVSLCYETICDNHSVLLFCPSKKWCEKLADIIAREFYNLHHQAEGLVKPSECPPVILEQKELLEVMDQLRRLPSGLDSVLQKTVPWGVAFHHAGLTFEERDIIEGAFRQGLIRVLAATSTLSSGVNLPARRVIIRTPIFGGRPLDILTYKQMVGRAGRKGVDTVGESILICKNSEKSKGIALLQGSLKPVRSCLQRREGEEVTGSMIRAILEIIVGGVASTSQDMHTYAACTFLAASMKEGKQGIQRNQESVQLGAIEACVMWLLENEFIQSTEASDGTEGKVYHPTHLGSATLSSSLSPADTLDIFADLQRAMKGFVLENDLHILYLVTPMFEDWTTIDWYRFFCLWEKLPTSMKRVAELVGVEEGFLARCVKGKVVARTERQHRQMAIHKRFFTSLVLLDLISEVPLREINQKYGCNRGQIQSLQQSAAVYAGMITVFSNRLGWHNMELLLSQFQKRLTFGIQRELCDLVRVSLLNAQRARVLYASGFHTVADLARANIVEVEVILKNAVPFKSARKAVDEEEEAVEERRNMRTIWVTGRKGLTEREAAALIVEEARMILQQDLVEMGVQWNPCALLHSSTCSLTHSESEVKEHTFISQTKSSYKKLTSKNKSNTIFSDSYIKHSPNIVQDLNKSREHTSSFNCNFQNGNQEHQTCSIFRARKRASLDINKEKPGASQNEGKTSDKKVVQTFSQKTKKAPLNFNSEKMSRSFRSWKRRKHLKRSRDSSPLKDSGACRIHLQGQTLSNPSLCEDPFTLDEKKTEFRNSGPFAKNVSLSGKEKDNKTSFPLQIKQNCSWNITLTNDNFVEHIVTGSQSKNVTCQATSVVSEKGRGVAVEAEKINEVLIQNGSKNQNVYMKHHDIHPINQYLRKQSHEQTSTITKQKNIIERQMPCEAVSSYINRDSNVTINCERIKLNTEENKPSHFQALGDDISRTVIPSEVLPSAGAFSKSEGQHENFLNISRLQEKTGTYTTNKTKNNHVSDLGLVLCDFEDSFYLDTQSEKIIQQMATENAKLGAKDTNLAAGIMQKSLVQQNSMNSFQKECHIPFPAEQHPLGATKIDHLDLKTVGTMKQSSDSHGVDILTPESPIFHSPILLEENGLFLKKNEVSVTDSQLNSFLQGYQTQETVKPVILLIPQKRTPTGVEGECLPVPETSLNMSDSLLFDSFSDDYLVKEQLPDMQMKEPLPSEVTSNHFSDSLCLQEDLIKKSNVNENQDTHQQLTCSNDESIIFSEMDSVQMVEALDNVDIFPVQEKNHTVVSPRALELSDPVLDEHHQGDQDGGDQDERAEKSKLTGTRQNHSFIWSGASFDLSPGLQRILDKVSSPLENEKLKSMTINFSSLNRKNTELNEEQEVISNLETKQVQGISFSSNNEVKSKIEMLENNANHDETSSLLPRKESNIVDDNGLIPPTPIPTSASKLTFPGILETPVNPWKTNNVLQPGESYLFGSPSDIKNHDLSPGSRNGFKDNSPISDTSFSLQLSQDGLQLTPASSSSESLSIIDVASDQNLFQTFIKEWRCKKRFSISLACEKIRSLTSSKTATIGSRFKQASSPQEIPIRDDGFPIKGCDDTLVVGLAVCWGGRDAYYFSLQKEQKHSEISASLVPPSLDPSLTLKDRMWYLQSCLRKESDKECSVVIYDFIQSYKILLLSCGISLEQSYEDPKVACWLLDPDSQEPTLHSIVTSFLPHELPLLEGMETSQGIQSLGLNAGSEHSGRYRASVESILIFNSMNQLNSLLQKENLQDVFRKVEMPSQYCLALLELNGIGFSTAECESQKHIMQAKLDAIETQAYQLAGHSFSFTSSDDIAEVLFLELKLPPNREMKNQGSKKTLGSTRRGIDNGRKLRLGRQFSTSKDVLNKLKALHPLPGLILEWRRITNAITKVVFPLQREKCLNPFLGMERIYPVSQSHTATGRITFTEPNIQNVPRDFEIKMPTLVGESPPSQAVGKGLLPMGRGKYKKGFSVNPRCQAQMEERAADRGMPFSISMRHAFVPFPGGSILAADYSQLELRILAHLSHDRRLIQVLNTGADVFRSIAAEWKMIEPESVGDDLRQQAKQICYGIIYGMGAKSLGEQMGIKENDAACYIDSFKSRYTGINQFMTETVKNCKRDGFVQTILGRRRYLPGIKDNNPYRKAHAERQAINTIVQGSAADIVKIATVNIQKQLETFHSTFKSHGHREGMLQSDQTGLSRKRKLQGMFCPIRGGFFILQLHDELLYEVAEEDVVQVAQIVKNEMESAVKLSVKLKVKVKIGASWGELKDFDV
Observed: ATPase activity
Concentration: concentration not given
Setting: average
Together with: with ssDNA
SMILES | remaining activity [%]
O=c1[nH]c2cc(Cl)ccc2c(O)c1-c1cccc(Oc2ccccc2)c1 | 73.2
O=C(O)[C@]1(Cc2cccc(Nc3nccs3)n2)CC[C@@H](Oc2cccc(Cl)c2F)CC1 | 55.6
Cc1noc(C)c1S(=O)(=O)Nc1ccc(C(=O)Nc2ccc(Br)cc2)cc1 | 56.4
Cc1ccc(-c2n[nH]c3c2C(c2cccc(O)c2)N(c2ccc(C(=O)O)cc2)C3=O)cc1 (stereo not drawn) | 63.8
C[C@H]1[C@H](C)CC[C@]2(C(=O)O)CC[C@]3(C)C(=CC[C@@H]4[C@@]5(C)C[C@@H](O)[C@H](O)[C@@](C)(CO)[C@@H]5CC[C@]43C)[C@H]12 | 56.2
CCOc1ccccc1NC(=O)CSc1ncc(S(=O)(=O)c2ccc(C(C)(C)C)cc2)c(=O)[nH]1 | 69.7
COc1cccc2c1C(=O)c1c(O)c3c(c(O)c1C2=O)C[C@@](O)(C(C)=O)C[C@@H]3O[C@H]1C[C@H](N)[C@H](O)[C@H](C)O1 | 52.8
CC(C)(C)c1ccc(S(=O)(=O)c2cnc(SCC(=O)Nc3ccc4c(c3)OCCO4)[nH]c2=O)cc1 | 66.7
COc1ccc(S(=O)(=O)c2cnc(SCC(=O)Nc3cc(F)ccc3C)[nH]c2=O)cc1Cl | 57.9
O=C(Nc1cc(-c2ccccc2)sc1C(=O)O)c1cccc(F)c1 | 60.7
COC(=O)[C@]12CCC(C)(C)C[C@H]1[C@H]1C(=O)C=C3[C@@]4(C)C=C(C#N)C(=O)C(C)(C)[C@@H]4CC[C@@]3(C)[C@]1(C)CC2 | 41.9

Repeated from above (sample 4):
SMILES | remaining activity [%]
COC(=O)[C@]12CCC(C)(C)C[C@H]1[C@H]1C(=O)C=C3[C@@]4(C)C=C(C#N)C(=O)C(C)(C)[C@@H]4CC[C@@]3(C)[C@]1(C)CC2 | 41.9
O=C(Nc1cc(-c2ccccc2)sc1C(=O)O)c1cccc(F)c1 | 60.7
Cc1noc(C)c1S(=O)(=O)Nc1ccc(C(=O)Nc2ccc(Br)cc2)cc1 | 56.4
COc1cccc2c1C(=O)c1c(O)c3c(c(O)c1C2=O)C[C@@](O)(C(C)=O)C[C@@H]3O[C@H]1C[C@H](N)[C@H](O)[C@H](C)O1 | 52.8
